Measurements pooled from the literature.
Lines come from different studies, so protocols differ. ± marks the error that the study gave.

Structure (SMILES)	test	system	conditions	how to read	measurement	result
O=C(N[C@H](Cc1c[nH]c2ccccc12)C(=O)Nc1ccncc1)c1ccc(-c2cc(C(F)(F)F)ccc2F)cc1F	–	Swiss Webster mouse, female, fat	oral, 50 mg/kg, 2 h, 20% Kolliphor vehicle	–	concentration	18.2 µM
COc1ccnc(C(=O)NCC(=O)O)c1O	FOCUS PEARL groundwater modelling	soil	geometric mean input	–	KOC	388 mL/g
CN(C(=O)n1cnc(-c2cccnc2)c1)C1CCCCC1	–	Wistar rat, pons	oral, 10 mg/kg, 4 h, single dose	–	tissue concentration	38.8 ± 5.5 ng/g
COc1c(N2C[C@@H]3CCCN[C@@H]3C2)c(F)cc2c(=O)c(C(=O)O)cn(C3CC3)c12	–	male Hartley guinea pigs, anaesthetized	intravenous, 5 mg/kg over 10 min, after infusion	–	heart rate	228 ± 1.3 beats/min
COc1cc2nccc(Oc3ccc(NC(=O)c4cc5c(n(-c6ccccc6)c4=O)CCCC5=O)nc3)c2cc1OC	–	relapsed or refractory AML	oral, 6 mg once daily	–	grade ≥3 Sepsis patients	33.3%
Cc1ccc(C(=O)N(CCCN)C(c2nc3snc(C)c3c(=O)n2Cc2ccccc2)C(C)C)cc1 (stereo not drawn)	–	human patients	intravenous, 13 mg/day	–	grade ≥3 dysphagia patients	33%
CC(C)C[C@H](NC(=O)[C@@H](Cc1c[nH]c2ccccc12)NC(=O)[C@H](Cc1ccc(O)cc1)NC(=O)[C@H](CO)NC(=O)[C@H](Cc1c[nH]c2ccccc12)NC(=O)[C@H](Cc1c[nH]cn1)NC(=O)[C@@H]1CCC(=O)N1)C(=O)N[C@@H](CCCNC(=N)N)C(=O)N1CCC[C@H]1C(=O)NCC(N)=O	–	Chinese CPP children, boys	intramuscular, 22.5 mg, 12 months, day 1, month 6	–	patients, drug-related metabolic TEAEs	25%
CC(C)NCC(O)c1ccc(NS(C)(=O)=O)cc1 (racemic)	–	male Hartley guinea pigs, anaesthetized	intravenous, 3 mg/kg over 10 min, after infusion	–	heart rate	172 ± 0.4 beats/min
Cn1cc(Nc2nccc(-c3ccc4c(c3)CN(C3COC3)CC[C@H]4NC(=O)c3cn(C(C)(C)C)nn3)n2)cn1	–	human, whole blood	150 mg twice daily, day 7	reference: pre-dose baseline	non-switched memory B cell change	15.7%
O=C(O)c1c(O)cccc1O	–	human CSF	concentration not given, mean	–	CSF concentration	not detected
OC[C@H]1O[C@@H](c2ccc(Cl)c(Cc3ccc(O[C@H]4CCOC4)cc3)c2)[C@H](O)[C@@H](O)[C@@H]1O	–	Japanese type 1 diabetes patients, blood	25 mg, day 28	reference: baseline	change in Triglycerides	-0.42 mg/dL
COC(=O)N[C@H](C(=O)N[C@@H](Cc1ccccc1)[C@@H](O)CN(Cc1ccc(-c2ccccn2)cc1)NC(=O)[C@@H](NC(=O)OC)C(C)(C)C)C(C)(C)C	modified PAMPA Franz cell	phosphate buffer with HPMCAS	3 h, 300 rpm, 460 nm particles, together with: no BSA	–	plateau flux concentration	147 µg/mL
CO[C@H]1/C=C/O[C@@]2(C)Oc3c(C)c(O)c4c(c3C2=O)C2=NC3(CCN(CC(C)C)CC3)NC2=C(NC(=O)/C(C)=C/C=C/[C@H](C)[C@H](O)[C@@H](C)[C@@H](O)[C@@H](C)[C@H](OC(=O)Nc2c(C)nc3ccccn23)[C@@H]1C)C4=O	–	CD-1 mouse	dose not given	–	volume of distribution	4.6 L/kg
CC(=O)N[C@H]1[C@H]([C@H](O)[C@H](O)CO)OC(C(=O)O)=C[C@@H]1N=C(N)N	HPLC	HBSS	5 µg/mL, 36 h, room temperature, short-term stability	–	recovery	103%
NCCONC(=O)[C@@H]1CC[C@@H]2CN1C(=O)N2OS(=O)(=O)O	–	healthy Chinese male subjects	intravenous, 2 g	–	number of serious TRAE events	0
CNc1ccc(-c2nc3ccc(O)cc3s2)cc1 [carbon-11 labelled]	ex vivo biodistribution	B6SJL mouse, normal, cortex	intravenous, 30 min	–	SUV	0.132 ± 0.049
CCC(=O)N(CCC(c1ccc2c(c1)OCO2)c1ccccc1OC)Cc1ccccc1 (stereo not drawn)	–	female athymic nude mouse, blood	i.p., 60 mg/kg twice daily, 14 days, group mean	–	TBIL	0.1 mg/dL
CCN1/C(=C/C(C)=O)Sc2ccc(F)cc21	–	cynomolgus monkey	oral, 30 mg/kg, 4 h post-dose	reference: pre-dose	heart rate change	88.2 ± 20.7%
COc1cc(CCC(=O)O)ccc1OS(=O)(=O)O	–	human CSF	concentration not given, mean	–	CSF concentration	not detected

Structure (SMILES)	test	system	conditions	how to read	measurement	result
CC#CC(=O)N[C@H]1CCCN(c2c(F)cc(C(N)=O)c3[nH]c(C)c(C)c23)C1	–	healthy volunteers	oral, 0.3 mg single dose, SAD phase I	–	adverse events	66.7%
CC(=O)N(C)[C@H]1CCN(C(=O)c2cnc3c(c2)C[C@](C)(c2ccc(F)cc2)N3)C1	–	healthy male subjects, multiple rising dose	oral, 30 mg once daily	–	adverse events of special interest	12.5%
O=C(O)CCC(=O)O.[2H]C([2H])([2H])Oc1cc(C)c2[nH]ccc2c1CN1CC[C@@H](C2CC2)C[C@H]1c1ccc(C(=O)O)cc1	multiple ascending dose	healthy Chinese subjects	50 mg twice daily	–	subjects with elevated cholesterol TEAE	0%
FC(F)(F)c1ccc(CNc2ccc(Cc3c[nH]c4ncc(Cl)cc34)cn2)cn1	measured: face oedema	human, advanced solid tumours, non-TGCT cohort	oral, 1000 mg/day, grade 3 or higher	–	treatment-related adverse events	0%
C=CC[C@@H]1/C=C(\C)C[C@H](C)C[C@H](OC)[C@H]2O[C@@](O)(C(=O)C(=O)N3CCCC[C@H]3C(=O)O[C@H](/C(C)=C/[C@@H]3CC[C@@H](O)[C@H](OC)C3)[C@H](C)[C@@H](O)CC1=O)[C@H](C)C[C@@H]2OC	measured: gastrointestinal disorders	kidney transplant recipients	oral, dose not given	–	adverse drug reactions	22%
C[C@@H](Oc1ccc(S(C)(=O)=O)cc1C(=O)N1C[C@@H]2C[C@]2(c2cc(C(F)(F)F)on2)C1)C(F)(F)F	–	human	oral, 25 mg	–	incidence of Insomnia	16.7%
COc1cc(Nc2ncc3c(n2)-c2ccc(Cl)cc2C(c2c(F)cccc2OC)=NC3)ccc1C(=O)O	–	cancer patients	oral, dose not given, grade 1 any attribution, together with: pembrolizumab	–	patients with nasal congestion	13%
C[C@@H](Nc1cc(F)cc(F)c1)c1cc(C(=O)N(C)C)cc2c(=O)cc(N3CCOCC3)oc12	measured: alanine aminotransferase increased	patients with advanced solid tumours	oral, dose not given, dose finding phase I	–	treatment-related serious adverse events	1.6%
Cc1c(-c2ccc(N3CCc4cccc(C(=O)Nc5nc6ccccc6s5)c4C3)nc2C(=O)O)cnn1CC12CC3(C)CC(C)(C1)CC(OCCNCC[C@H](O)CO)(C3)C2	–	anaesthetized male beagle dog	iv infusion, 0.1 mg/kg/min, 120 min	–	plasma concentration	< 4 ng/mL
CCOc1c([C@H](C)n2nc(C)c3c(N)ncnc32)cc(Cl)c(F)c1[C@@H]1CNC(=O)C1	–	human, B-cell malignancies, plasma	oral, 30 mg, day 15, geometric mean	–	AUC(0-tau)	18.7 µM·h
Cc1cc(C)c(CNC(=O)c2cc(Cl)c3c(c2C)O[C@@](C)([C@H]2CC[C@H](N(C)C)CC2)O3)c(=O)[nH]1	measured: Arthralgia	human patients	oral, 200 mg once daily, 1 day onset day 14	–	patients with TEAE	0%
CNC(=O)c1ccc(-c2cnc3ncc(Cc4ccc5ncccc5c4)n3n2)cc1F	–	gastric cancer patients	oral, 600 mg twice daily, all grades RP2D expansion	–	AST increased incidence	11%
Cc1cc(-c2nccc3c2ccn3CC(=O)Nc2ccc(-c3cnccn3)cn2)ccn1	–	human	SAD part, single 20 mg dose	–	subjects with Vomiting TEAEs	0%
Cc1cc(NC2CCN(C(=O)OC3CCN(C(=O)/C=C/CN(C)C)C3)CC2)n2ncc(C(C)C)c2n1 (stereo not drawn)	–	patients with advanced solid tumours	dose not given, QD arm, any grade	–	patients with Dizziness	12%
Cl.[2H]C([2H])([2H])CC(=O)c1cnc(NC(=O)C2CC2)cc1Nc1cccc(-c2ncn(C([2H])([2H])[2H])n2)c1OC	geometric mean	human	oral, 100 mg single dose, fasted, liquid	–	Vz/F	104 L
N#Cc1ccc2c(c1)[C@H]1CCCN(C(=O)c3ccc4[nH]cnc4c3)[C@H]1C2	–	human	160 mg, day 7	–	maximum ACTH level	15.6 pmol/L
CC(C)(C(=O)N1CCOc2c(C#N)cncc2C1)C(F)F	measured: tandem gait test abnormal	human, both sexes	oral, 10 mg once daily, 14 days, multiple ascending dose	–	subjects with TEAE	0%
CN(CCCN1CCN(C(=O)CN2CCN(CC(=O)[O-])CCN(CC(=O)[O-])CCN(CC(=O)[O-])CC2)CC1)c1ccc2nccc(C(=O)NCC(=O)N3CC(F)(F)C[C@H]3C#N)c2c1.[68Ga+3]	–	mice, HT-1080.hFAP and HT-1080 wild-type xenografts, stomach	iv, 500 pmol, 1 h post injection	–	uptake	0.3 ± 0.1 %IA/g
C=CC(=O)Nc1cc(Nc2nccc(-c3cn(C)c4ccccc34)n2)c(OC)cc1N(C)CCN(C)C	storage stability	human plasma	72 h, -80 °C, high QC level	–	recovery	92.1%

Structure (SMILES)	test	system	conditions	how to read	measurement	result
C=CC(=O)NC1CCN(c2ncc3ncnc(Nc4ccc(Oc5ccc6c(c5)ncn6C)c(C)c4)c3n2)CC1	measured: total radioactivity	healthy male volunteers, whole blood	oral solution, 60 mg, together with: [14C]-labelled compound	–	AUC(0-tz)	38.7 µM·h
CCc1cc(C(=O)NC)c2nccc(N3CCc4c(cc(Cn5ccnc5)cc4-c4cn(C)nc4C(F)(F)F)C3=O)c2c1	–	Sprague Dawley rats	oral, 50 mg/kg once daily, 7 days	–	serum CK activity	109 ± 13.9 U/L
CC1(C)S[C@@H]2[C@H](NC(=O)[C@H](N)c3ccc(O)cc3)C(=O)N2[C@H]1C(=O)O	–	male Hartley guinea pigs, anaesthetized	intravenous, 10 mg/kg group, baseline before infusion	–	heart rate	217 ± 0.4 beats/min
N#Cc1ccc2c(c1)[C@H]1CCCN(C(=O)c3ccc4[nH]cnc4c3)[C@H]1C2	–	human, plasma	oral, 80 mg once daily, steady state	–	AUC(tau) steady state	72 µM·h
CNCc1ccc(-c2[nH]c3cc(F)cc4c3c2CCNC4=O)cc1	–	patients	oral, 360 mg twice daily, all grades	–	anaemia incidence	50%
O=C(O)c1ccc(O)c(O[C@@H]2O[C@H](C(=O)O)[C@@H](O)[C@H](O)[C@H]2O)c1	–	human CSF	concentration not given, mean	–	CSF concentration	not detected
CC(=O)Oc1ccccc1C(=O)O	–	male Hartley guinea pigs, anaesthetized	intravenous, 1 mg/kg over 10 min, after infusion	–	heart rate	243 ± 0.2 beats/min
CO[C@@H]1[C@H](OC(=O)N2CC(CCN3CCOCC3)C2)CC[C@]2(CO2)[C@H]1[C@@]1(C)O[C@@H]1CC=C(C)C	–	human	dose not given, day 28, multiple ascending dose	reference: baseline	systolic blood pressure change	-0.3 ± 10.7 mmHg
COc1nc(-c2cc(C)c(N[C@@H](C)c3cc(F)cc(F)c3)nn2)ccc1-n1cnc(C)c1	–	cynomolgus monkey, male, plasma	oral, 2 mg/kg	reference: intravenous 1 mg/kg	oral bioavailability	27.8%
NC(N)=NCCC[C@@H](N)C(=O)N[C@@H](CCCN=C(N)N)C(=O)N1CCC[C@H]1C(=O)N1C[C@H](O)C[C@H]1C(=O)NCC(=O)N[C@@H](Cc1cccs1)C(=O)N[C@@H](CO)C(=O)N1Cc2ccccc2C[C@@H]1C(=O)N1[C@H](C(=O)N[C@@H](CCCN=C(N)N)C(=O)O)C[C@@H]2CCCC[C@@H]21	popPK full model bootstrap median	human	subcutaneous	–	peripheral clearance (Q/F)	0.408 L/h
O=c1c2ccccc2oc2ccccc12	–	tricaprin-tricaprylin mixture	45 °C, tricaprin fraction 0.77	–	solubility	0.0527 mole fraction
CCCCC1=NC2(CCCC2)C(=O)N1Cc1ccc(-c2ccccc2S(=O)(=O)Nc2noc(C)c2C)c(COCC)c1	–	healthy adult volunteers, plasma	oral, 100 mg, single dose, fed, crushed tablet	–	Tmax	4.26 h
CC(C)(C)c1ccc(O)c(CN(Cc2cc(C(C)(C)C)ccc2O)C2CCC(NC(N)=O)CC2)c1 (stereo not drawn)	–	C57BL/6 mice, male, brain	intraperitoneal, 10 mg/kg, single dose	–	terminal elimination rate constant	2.72e-05 s⁻¹
[18F]c1ccc(-c2ccc3c(c2)[nH]c2ccncc23)cn1	ex vivo biodistribution	APP/PS1 mouse, AD model, kidneys	intravenous, 30 min	–	SUV	2.62 ± 1.93
CCO[C@H]1CCN(Cc2c(OC)cc(C)c3[nH]ccc23)[C@H](c2ccc(C(=O)O)cc2)C1	–	PNH patients, active haemolysis	oral, 100 mg, 8 weeks, treatment	–	incidence of abdominal pain	0%
COc1ccc(C(=O)O)c(O)c1	–	human CSF	concentration not given, mean	–	CSF concentration	not detected
COc1cc(C2=CCCc3c2ccc(OC)c3OCc2cnc([N+](=O)[O-])n2C)cc(OC)c1OC	non-enzymatic, no POR	phosphate buffer	24 h, pH 7.4	–	parent drug release	0%
CCCCCCCCNCc1ccc(CNC(=O)c2csc3nc[nH]c(=O)c23)cc1	haemolysis	human red blood cells	1 h, 37 °C	–	EC50	> 100 µM
O=C1c2ccncc2C(=O)c2c1[nH]c1ccccc21	–	Sprague-Dawley rat, female, right ventricle	oral, 1 mg/kg, 24 h	–	tissue concentration	0.173 ± 0.072 nmol/mg
